Published values of several laboratories.
Compare with care: the assays were run in different laboratories. Numbers after ± are the reported error.
TDP1: Tyrosyl-DNA phosphodiesterase 1 (TDP1, Homo sapiens, UniProt Q9NUW8)
Chain of UniProt Q9NUW8 (whole entry, looked up): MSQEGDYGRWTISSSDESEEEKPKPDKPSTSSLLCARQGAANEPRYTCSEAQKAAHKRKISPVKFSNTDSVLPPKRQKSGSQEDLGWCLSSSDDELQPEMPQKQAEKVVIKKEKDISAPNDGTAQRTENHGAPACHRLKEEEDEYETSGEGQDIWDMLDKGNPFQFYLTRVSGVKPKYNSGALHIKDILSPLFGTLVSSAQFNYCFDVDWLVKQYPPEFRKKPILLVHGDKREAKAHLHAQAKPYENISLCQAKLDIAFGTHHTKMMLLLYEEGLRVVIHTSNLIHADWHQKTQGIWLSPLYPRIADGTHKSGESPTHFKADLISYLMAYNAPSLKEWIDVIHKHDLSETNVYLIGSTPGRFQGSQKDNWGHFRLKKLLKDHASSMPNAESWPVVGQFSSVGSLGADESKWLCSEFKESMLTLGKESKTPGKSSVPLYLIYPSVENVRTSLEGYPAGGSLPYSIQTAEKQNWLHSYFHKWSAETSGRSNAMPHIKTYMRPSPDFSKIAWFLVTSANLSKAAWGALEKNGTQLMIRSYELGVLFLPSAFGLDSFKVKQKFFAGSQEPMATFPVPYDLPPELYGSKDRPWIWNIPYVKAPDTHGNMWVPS

Structure (SMILES) | tested on | assay | system | conditions | how to read | measurement | value
C/C=C(/C)C(=O)O[C@@H]1C=C(C)CC[C@]2(O)[C@@H](C(C)C)CC(=O)[C@]12C | Helicobacter pylori | microbial growth, broth dilution |  | 15.63 µg/mL |  | inhibition | 0%
Nc1ncc(-c2cc(-c3cnn(CC(F)(F)F)c3)ncc2F)nc1C(=O)NC1CNCC(F)C1 (stereo not drawn) | RIOK3 | KINOMEscan |  | 1 µM | baseline: DMSO control | remaining binding | 86%
c1ccc(-c2n[nH]cc2-c2ccnc3ccccc23)nc1 | MCK1 (Candida albicans) | kinase binding, MIB/MS competition | Candida albicans lysate | 1 µM | baseline: DMSO | log2 fold change | 0.09
CC(C)(C)NCC(SS(=O)(=O)O)c1ccccc1 (stereo not drawn) | Schistosoma mansoni | perfusion day 44 | infected Swiss Webster mice | 600 mg/kg single dose, 1056 h, dosed day 15 post-infection | baseline: vehicle control | spleen weight decrease | 52%
CNS(=O)(=O)Nc1nccc(Cc2c(C)c3ccc(Oc4ncccc4F)cc3oc2=O)c1F | SNU-8 | cell viability, CellTiter-Glo |  | 7 days |  | IC50 | 2.6 nM
C=C(NC(=O)c1csc(-c2nc3c(cc2O)-c2nc(cs2)C(=O)NC(C(C)O)C(=O)NC(=C(C)OC)c2nc(cs2)C(=O)NC2c4nc(cs4)C(=O)NC(COC(=O)c4c5c6c(cccc6n4O)COC(=O)C(OC4CC(C)(O)C(N(C)C)C(C)O4)C2OC5)c2nc-3cs2)n1)C(N)=O (stereo not drawn) | Streptococcus pneumoniae |  | -25, immunocompromised mice, lung infection | tid dosing |  | lung bacterial load at ED50 | 5.08 log CFU/g
C=CC(=O)N1[C@H](c2ccc3c(c2)OCO3)c2[nH]c3ccccc3c2C[C@@H]1C(=O)N1CCN(C)CC1 | human cyclin E1 N112C-3xFLAG:CDK2 | co-IP with TMT proteomics, measured: PPIB |  | concentration not given | baseline: wild type DMSO | relative co-enrichment | 123%
O=C(O)c1ccc(Nc2c(-c3ccccc3)nc3ccc(CON=CC4=C(Cl)c5ccccc5CC4)cn23)cc1 (mixture of isomers) | TDP1 | enzyme activity, inhibitor |  | 100 µM, unpurified compound |  | inhibition | 47.5%
Cn1ncc2cc(-c3cncc(Cl)c3N3CCC4(CCNC4=O)CC3)ccc21 | LS174T | gene expression, microarray, measured: CACNA1H mRNA |  | concentration not given, 4 h | baseline: untreated cells | log2 fold change | 1.73
COc1cc(O)ccc1CCC(c1ccc(O)cc1)c1cc2c(c(C)c1O)OC(c1ccc(O)cc1)CC2 (mixture of isomers) |  |  | human blood | 1 µM, added: A23187 |  | 12-HETE level | 6710 ± 1710 pg/mL
COC1CN([C@H]2CC[C@H]([C@@]3(C)Oc4c(Cl)cc(C(=O)NCc5c(SC)cc(C)[nH]c5=O)c(C)c4O3)CC2)C1 |  | RNA-seq, measured: BMPR1A | human, whole blood | dose not given, 24 h | baseline: pretreatment baseline | log2 fold change | 1.32
COCC1CN(C2CCN(c3cc(OC)c(Nc4ncc(Br)c(Nc5ccc6c(c5P(C)(C)=O)OCCO6)n4)cc3C)CC2)C1 |  | RECIST 1.1 | advanced EGFR-mutant NSCLC patients | 30 mg once daily |  | progressive disease | 66.7%
COCCOCCOCCNC(=O)Cc1cc(CC(=O)N[C@H]2C[C@H]3C(=O)Nc4cc(OCCOCCOCCOC)cc(n4)C(=O)N4CCC[C@H]4C(=O)Nc4cc(OCCOCCOCCOC)cc(n4)C(=O)N4CCC[C@H]4C(=O)Nc4cc(OCCOCCOCCOC)cc(n4)C(=O)N3C2)cc(CC(=O)N[C@H]2C[C@H]3C(=O)Nc4cc(OCCOCCOCCOC)cc(n4)C(=O)N4CCC[C@H]4C(=O)Nc4cc(OCCOCCOCCOC)cc(n4)C(=O)N4CCC[C@H]4C(=O)Nc4cc(OCCOCCOCCOC)cc(n4)C(=O)N3C2)c1 |  | anion binding, ITC | water/acetonitrile 70 vol% (87.1 mol%) | 298 K, added: sodium sulfate |  | TΔS | 3.25 ± 0.0239 kcal/mol
O=C(O)c1ccc(Nc2c(-c3ccccc3)nc3ccc(CON=Cc4c(F)cccc4Oc4ccccc4)cn23)cc1 | TDP1 | enzyme activity, inhibitor |  | 100 µM, unpurified compound |  | inhibition | 54.6%
C=CC(=O)Nc1cccc(Cn2ncc3cnc(Nc4cnn(CCOC)c4)nc32)c1 | HIPK2 human | binding, KINOMEscan |  | 100 nM | lower = stronger binding | percent of control | 84%
CN1CCCNC(=O)c2cccc(c2)C(=O)NCCCN(C)CCCNc2cccc3c2C(=O)c2cccc(c2C3=O)NCCC1 | SAS | RNA-Seq, measured: VIPAS39 mRNA |  | 1 µM, 6 h | baseline: untreated cells | log2 fold change | -1.19
CCN(CC)CC(=O)Nc1cccc(-n2cc(-c3ccc4ccc(-c5cn(-c6cccc(NC(=O)CN(CC)CC)c6)nn5)cc4c3)nn2)c1 | RCC4 | PCR angiogenesis array, measured: TGFBR1 |  | 5 x IC50, 6 h, normoxia | baseline: untreated | fold regulation | -1.34 fold
Cc1ncsc1-c1ccc(C(C)NC(=O)C2CC(O)CN2C(=O)C(NC(=O)CCCCCCCCCCN2CCCC(Nc3ncc(Cl)c(Nc4ccccc4S(=O)(=O)C(C)C)n3)C2)C(C)(C)C)cc1 (stereo not drawn) | 22Rv1 | RNA-seq, measured: ZNF813 mRNA |  | concentration not given | baseline: DMSO | log2 fold change | -1.3
